Published values collected from several papers.
Lines come from different studies, so protocols differ. ± gives the spread as reported.

SMILES	test	system	setting	scale	measurement	value
CSCc1ccccn1.F[P-](F)(F)(F)(F)F.F[P-](F)(F)(F)(F)F.[Ru+2].c1ccc(-c2ccccn2)nc1.c1ccc(-c2ccnc3c2ccc2c(-c4ccccc4)ccnc23)cc1	UV-vis spectroscopy	deaerated acetonitrile	298 K, added: light 521 nm		photosubstitution quantum yield	0.111
O=c1nc(NO)ccn1[C@@H]1O[C@H](CO)[C@@H](O)[C@H]1O	Western blot, measured: CYP1A2	rat, normal, liver	oral, 80 mg/kg twice daily, 5 days	relative to: control group	protein level	0.6 fold
CC12CC(c3ccc(S(C)(=O)=O)cc3)C3=C4CCC(=O)C=C4CCC3C1CCC2(O)C(F)(F)C(F)(F)F (centres unmarked)		human, fasted, plasma	oral, 4 mg, alone, without itraconazole		AUC(0-tlast), geometric mean	317 ng·h/mL
C[Si]1(C[C@H](CN)CC(=O)O)CCCC1	neuromuscular coordination	Wistar rat male	oral, 100 mg/kg, 2 h		performance time	180 s
CCNC(=O)NC1CC=C(c2cc3c(Nc4cc5ncsc5cc4F)ncnc3s2)CC1 (racemic)		human liver microsomes	1 µM		intrinsic clearance	< 12 mL/min/g protein
CC(C)[C@H](NC(=O)CNC(=O)[C@H](CCC(N)=O)NC(=O)[C@H](C)N)C(=O)O		human, both sexes, plasma	intravenous infusion, 45 mg/kg/h, 2 h infusion, geometric mean		volume of distribution	21 L/kg
CCCC[C@@H]1NC(=O)[C@@H](NC(=O)[C@H](CCC(=O)O)NC(=O)CNC(=O)CN2CCN(CC(=O)O)CCN(CC(=O)O)CCN(CC(=O)O)CC2)CCCCNC(=O)C[C@@H](C(N)=O)NC(=O)[C@H](C(C)C)NC(=O)[C@@H]2CCCN2C(=O)[C@H](CCCNC(=N)N)NC(=O)CNC(=O)[C@H](Cc2c[nH]c3ccccc23)NC(=O)[C@H](CCCNC(=N)N)NC(=O)[C@@H](Cc2ccccc2)NC(=O)[C@H](Cc2c[nH]cn2)NC(=O)[C@H](CCC(=O)O)NC1=O [gallium-67 labelled]		C57 mice, B16/F1 flank melanoma, muscle	intravenous, 2 h, added: blocking peptide 10 µg		tissue uptake	0.09 ± 0.06 %ID/g
C=C(c1ccc(C(=O)O)c(F)c1)c1cc2c(cc1C)C(C)(C)C=CC2(C)C		Sprague-Dawley rat, male, plasma	oral, 100 mg/kg, 12 h, sesame oil vehicle		LDL level	4 ± 1 mg/dL
C[Si](C)(C[C@@H](CN)CC(=O)O)C1CC1	neuromuscular coordination	Wistar rat male	oral, 100 mg/kg, 2 h		performance time	180 s
C=C(c1cc(F)c(C(=O)O)c(F)c1)c1cc2c(cc1C)C(C)(C)CCC2(C)C		Sprague-Dawley rat, male, plasma	oral, 100 mg/kg, 12 h, sesame oil vehicle		LDL level	7 ± 2 mg/dL
Cn1c(=O)oc2ccc(-c3ccc(CC(C#N)NC(=O)C4CNCCCO4)c(F)c3)cc21 (centres unmarked)	measured: skin exfoliation	human	80 mg, treatment-related, single dose, fasted		subjects with adverse event	0%
Cc1[nH]nc2c1N=C(c1ccccc1Cl)c1cnc(N(CCO)CCO)cc1N2		human male, faeces	oral, 10 mg, 0-192 h	relative to: dose	faecal excretion	2.74%
CCn1c(=O)n(CCO)c(=O)c2c1nc(/C=C/c1ccc(OC)c(OC)c1)n2C		healthy humans, plasma	oral, 40 mg, added: rifampin 600 mg/day	relative to: with over without rifampin	geometric mean ratio Cmax	1.14
CN1CCC[C@]1(C)/C=C/S(=O)(=O)NC(=O)Nc1c2c(cc3c1CCC3)CCC2		human	oral, up to 100 mg twice daily, 14 days		tolerability	not toxic
CC(=O)[CH](C(C)=O)[Pt-2]1([S+](C)C)[O]C(C)=CC(C)=[O+]1 (centres unmarked)	measured: platinum	rat	iv, dose not given, 24 h		remaining in circulation	~26%
OCc1cn(Cc2ccc(-c3noc(-c4ccc(OCC[18F])c(C(F)(F)F)c4)n3)cc2)nn1		rat, liver	intravenous, 5 min		tracer uptake	5.69 %ID/g

SMILES	test	system	setting	scale	measurement	value
Cc1ccccc1/N=N/c1ccc(/N=N/c2c(O)ccc3ccccc23)c(C)c1		rat whole blood extract	0.2 µg/L, 30 days, -20 °C, long-term storage		measured concentration	0.189 µg/L
COc1cc2ncnc(Oc3ccc4c(C(N)=O)c(C)oc4c3)c2cc1OC	measured: Cmax	human, severe renal impairment	oral	relative to: normal renal function	decrease in exposure	~47%
N=C(N)NCCC[C@@H]1NC(=O)[C@H](Cc2c[nH]c3ccccc23)NC(=O)[C@@H](CC2CCCCC2)NC(=O)[C@@H]2CCCN2C(=O)[C@@H](NC(=O)CCc2ccccc2)CCCNC1=O		C57BL/6J mice, brain	intraperitoneal, 1 mg/kg, two-compartment model		elimination rate constant	0.00025 s⁻¹
CCCC(CCC)NC(=O)c1ccc(OC2OC(C(=O)O)C(O)C(O)C2O)c(O)c1 (centres unmarked)		female Sprague-Dawley rats, plasma	oral, 200 mg/kg of parent drug	relative to: 200 over 20 mg/kg dose	AUC(0-last) ratio	3.33
CC(C)[C@H](NC(=O)CNC(=O)[C@H](CCC(N)=O)NC(=O)[C@H](C)N)C(=O)O		healthy volunteers, LPS endotoxaemia, plasma	intravenous, 15 mg/kg/h, 2 h infusion, geometric mean, added: LPS 2 ng/kg		clearance	150 mL/min/kg
COc1cc(NC(C)=O)c2c(c1O)-c1c(OC)c(OC)cc3c1C(C2)N(C)CC3 (centres unmarked)		male Wistar rat, plasma	oral, 200 mg/kg		CL/F	57 mL/min/kg
O=C([O-])CN1CCN(CC(=O)[O-])CCN(CC(=O)NCC2CCC(C(=O)NC(Cc3ccc4ccccc4c3)C(=O)NCCCCC(NC(=O)NC(CCC(=O)O)C(=O)O)C(=O)O)CC2)CCN(CC(=O)[O-])CC1.[44Sc+3] (centres unmarked)	transmetallation stability		1 h, 37 °C, added: Mg2+ 10 mM		intact complex	98.3 ± 0.5%
COc1cc2c(cc1OC)CN(CCCCn1ccc3cc(OCC[18F])ccc31)C2		male CD-1 mouse, kidney	intravenous, 2 h		tracer uptake	3.94 %ID/g
Cc1ccc(OCC(=O)O)cc1		Sprague-Dawley rat, male, plasma	oral gavage, 100 mg/kg of parent drug		t1/2	3.29 h
NC12CNCCNCC(NCc3ccc(CNC(=O)CCCC(=O)NCc4ccc(-c5nncnn5)cc4)cc3)(CNCCNC1)CNCCNC2.[64Cu+2]	OLINDA dosimetry	thymus	48 h pretargeting interval, added: huA33-TCO pretargeting		mean absorbed dose	0.0325 rad/mCi
C=CCc1ccc(O)c(-c2cc(CC=C)ccc2OCCCCCCCCCC[P+](c2ccccc2)(c2ccccc2)c2ccccc2)c1		C57BL/6 mouse, non-tumour-bearing	dose not given, day 31		serum albumin	2.7 ± 0.1 g/dL
CCOC(=O)c1[nH]c(C)c(/C=C/C2=[N+]3C(=C(c4cc(OC)cc(OC)c4)c4c(C)c(I)c(/C=C/c5c(C)[nH]c(C(=O)OCC)c5C)n4[B-]3(F)F)C(C)=C2I)c1C		DMSO			absorption maximum	693 nm
COc1ccc2cc(-c3ccc(-c4ccc(C)cn4)nc3)oc2c1	TCSPC	water, HEPES 100 mM	pH 7.4		fluorescence lifetime	2.48 ns
COCC1CN(C2CCN(c3cc(OC)c(Nc4ncc(Br)c(Nc5ccc6c(c5P(C)(C)=O)OCCO6)n4)cc3C)CC2)C1		human patients	oral, dose not given		grade ≥3 treatment-related vomiting	3.7%
NCC(=O)N1CCC[C@H]1C(=O)N1C[C@H](O)C[C@H]1C(=O)O	potentiometric titration		25 °C, MA3 complex, added: Fe(III)		log beta	30
COc1cc(-c2nc3ccccc3s2)cc(CN2Cc3cccc(n3)CN(Cc3cc(-c4nc5ccccc5s4)cc(OC)c3O)Cc3cccc(n3)C2)c1O	UV-vis spectrophotometric titration, measured: H4L3+/H3L2+ equilibrium	MeOH/water with NaCl	50 µM, room temperature, NaCl 0.1 M, MeOH ≤20% v/v		pKa1	4.35

Excerpt of the above:
SMILES	test	system	setting	scale	measurement	value
CSCc1ccccn1.F[P-](F)(F)(F)(F)F.F[P-](F)(F)(F)(F)F.[Ru+2].c1ccc(-c2ccccn2)nc1.c1ccc(-c2ccnc3c2ccc2c(-c4ccccc4)ccnc23)cc1	UV-vis spectroscopy	deaerated acetonitrile	298 K, added: light 521 nm		photosubstitution quantum yield	0.111
C=CCc1ccc(O)c(-c2cc(CC=C)ccc2OCCCCCCCCCC[P+](c2ccccc2)(c2ccccc2)c2ccccc2)c1		C57BL/6 mouse, non-tumour-bearing	dose not given, day 31		serum albumin	2.7 ± 0.1 g/dL
Cc1[nH]nc2c1N=C(c1ccccc1Cl)c1cnc(N(CCO)CCO)cc1N2		human male, faeces	oral, 10 mg, 0-192 h	relative to: dose	faecal excretion	2.74%
COc1cc(-c2nc3ccccc3s2)cc(CN2Cc3cccc(n3)CN(Cc3cc(-c4nc5ccccc5s4)cc(OC)c3O)Cc3cccc(n3)C2)c1O	UV-vis spectrophotometric titration, measured: H4L3+/H3L2+ equilibrium	MeOH/water with NaCl	50 µM, room temperature, NaCl 0.1 M, MeOH ≤20% v/v		pKa1	4.35
